Results collected from several papers.
Numbered parts are unrelated; each lists some results of a single study.

Set 1
Target: Sal-like protein 4, full length isoform B (SALL4, Homo sapiens, UniProt Q9UJQ4-2, residues 1-616)
Technique: universal PBM
Form: double-stranded DNA, one strand shown
Matrix: in vitro
Tested at: not given
Setting: 8-mer, flanks averaged, mean of replicates
Reading: higher = stronger binding
Residues (chain): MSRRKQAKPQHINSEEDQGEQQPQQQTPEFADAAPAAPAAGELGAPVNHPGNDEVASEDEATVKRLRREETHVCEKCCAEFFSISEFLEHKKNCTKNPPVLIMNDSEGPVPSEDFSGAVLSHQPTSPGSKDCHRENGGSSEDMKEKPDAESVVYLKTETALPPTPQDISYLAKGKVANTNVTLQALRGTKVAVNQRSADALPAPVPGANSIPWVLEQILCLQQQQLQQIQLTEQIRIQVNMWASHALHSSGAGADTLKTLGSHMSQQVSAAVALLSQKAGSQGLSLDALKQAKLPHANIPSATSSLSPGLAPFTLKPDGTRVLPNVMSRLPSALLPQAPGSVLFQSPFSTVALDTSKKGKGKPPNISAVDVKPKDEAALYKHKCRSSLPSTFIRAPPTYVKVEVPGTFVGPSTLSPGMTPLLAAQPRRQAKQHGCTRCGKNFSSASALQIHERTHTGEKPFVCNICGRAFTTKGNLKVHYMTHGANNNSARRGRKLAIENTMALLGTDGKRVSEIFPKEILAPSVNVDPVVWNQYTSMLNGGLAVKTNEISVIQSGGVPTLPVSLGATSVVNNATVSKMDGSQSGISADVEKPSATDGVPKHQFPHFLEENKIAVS
Strand | E-score
ACCCGTAC | -0.133
CAACCCGA | -0.185
TCCGACGA | 0.0437

Set 2
Target: Histone acetyltransferase KAT6A, winged helix 1, GST fusion (KAT6A, Homo sapiens, UniProt Q92794, residues 1-85)
Technique: protein binding microarray
Form: double-stranded DNA, one strand shown
Matrix: in vitro
Tested at: not given
Setting: 8-mer, flanks averaged, mean of 2 arrays, mostly near background
Baseline: not given
Reading: higher = stronger binding
Target sequence (chain): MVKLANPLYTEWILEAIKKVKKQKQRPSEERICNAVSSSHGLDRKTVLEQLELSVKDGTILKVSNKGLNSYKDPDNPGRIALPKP
Strand | E-score
ACGCGCTC | 0.356
AGTACTAG | -0.0704
CAATTATA | -0.111
ATCGTCAA | -0.0876

Single results of other studies
G3BP1 C-terminal RGG region: Ras GTPase-activating protein-binding protein 1, C-terminal RGG region (G3BP1, Homo sapiens, UniProt Q13283)
Chain of UniProt Q13283 (whole entry, looked up): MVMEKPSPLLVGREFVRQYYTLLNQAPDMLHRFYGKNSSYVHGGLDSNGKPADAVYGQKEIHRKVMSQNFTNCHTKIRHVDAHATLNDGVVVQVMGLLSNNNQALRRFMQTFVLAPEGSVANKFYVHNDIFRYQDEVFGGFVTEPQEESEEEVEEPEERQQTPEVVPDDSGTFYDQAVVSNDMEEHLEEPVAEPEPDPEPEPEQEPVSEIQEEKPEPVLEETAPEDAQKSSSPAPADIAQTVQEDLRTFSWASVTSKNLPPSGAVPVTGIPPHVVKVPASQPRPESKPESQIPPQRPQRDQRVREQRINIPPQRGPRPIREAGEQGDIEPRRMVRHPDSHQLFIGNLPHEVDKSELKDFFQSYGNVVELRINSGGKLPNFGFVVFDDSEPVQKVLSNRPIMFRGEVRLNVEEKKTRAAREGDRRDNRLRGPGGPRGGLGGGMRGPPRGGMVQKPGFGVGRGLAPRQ
Substance | target | assay | test system | setting | scale | endpoint | value
GGGAGUUCUACAGUCCGACGAUCCCUCAAGUCCUGUGCUACACAUCGUAUGUACCGAAUCGGUUUGGUUUGGAGGAAAGUAUUAUGUUACGCCGUUCGGAUCUGCACUUCCAGUGGAAUUCUCGGGUGUCAAGG | G3BP1 C-terminal RGG region | RNA Bind-n-Seq | RNA, in vitro | 1 µM, whole 134-nt RNA, ends assumed, added: 150 mM KCl | baseline: input library, higher = stronger binding | log2 enrichment | -0.717
PhoQ, residues 284 288 289 292 302 303 AGHLVA | PhoP, residues 12 14 15 18 19 LHHVQ (Escherichia coli, UniProt P23836) | Sort-seq, item: YFP reporter | E. coli | PhoQ-PhoP variant library, added: 10 µM Mg2+ | baseline: high Mg2+ state, higher = stronger signaling | fold induction | 0.329
GGGAGUUCUACAGUCCGACGAUCUUCCCAAGAUGGCGGCGGACGUGUCCGUUACUCACCGGCCCCCGCUGAGCCCUAAGUCUGGGGCCGAAGUCGAAGCCGGCGAUGCCGCGGUGGAAUUCUCGGGUGUCAAGG | G3BP1 C-terminal RGG region | RNA Bind-n-Seq | RNA, in vitro | 1 µM, whole 134-nt RNA, ends assumed, added: 150 mM KCl | baseline: input library, higher = stronger binding | log2 enrichment | -2.72

A few entries again (set 1):
Strand | E-score
TCCGACGA | 0.0437
